Experimental data collected from several papers.
Each line is one published result; not all experiments were run side by side. Values joined by “and” are separate records of one study, mostly repeats; a detail may differ. ± marks the error that the study gave.
XDH: Xanthine dehydrogenase/oxidase (XDH, Bos taurus, UniProt P80457)
CSNK1E: Casein kinase I isoform epsilon (CSNK1E, Homo sapiens, UniProt P49674)
Chain of UniProt P49674 (whole entry, looked up): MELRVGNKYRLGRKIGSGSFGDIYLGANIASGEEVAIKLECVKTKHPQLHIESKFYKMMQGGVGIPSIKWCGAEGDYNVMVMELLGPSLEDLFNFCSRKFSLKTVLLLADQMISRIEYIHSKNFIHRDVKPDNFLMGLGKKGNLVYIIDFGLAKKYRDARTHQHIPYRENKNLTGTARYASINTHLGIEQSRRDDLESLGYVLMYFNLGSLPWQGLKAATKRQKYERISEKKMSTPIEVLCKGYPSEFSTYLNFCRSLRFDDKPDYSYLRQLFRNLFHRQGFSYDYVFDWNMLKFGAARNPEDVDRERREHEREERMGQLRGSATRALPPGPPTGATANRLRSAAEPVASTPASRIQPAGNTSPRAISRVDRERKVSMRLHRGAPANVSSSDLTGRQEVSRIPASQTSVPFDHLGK
DRD2: D(2) dopamine receptor (DRD2, Homo sapiens, UniProt P14416)
Chain of UniProt P14416 (whole entry, looked up): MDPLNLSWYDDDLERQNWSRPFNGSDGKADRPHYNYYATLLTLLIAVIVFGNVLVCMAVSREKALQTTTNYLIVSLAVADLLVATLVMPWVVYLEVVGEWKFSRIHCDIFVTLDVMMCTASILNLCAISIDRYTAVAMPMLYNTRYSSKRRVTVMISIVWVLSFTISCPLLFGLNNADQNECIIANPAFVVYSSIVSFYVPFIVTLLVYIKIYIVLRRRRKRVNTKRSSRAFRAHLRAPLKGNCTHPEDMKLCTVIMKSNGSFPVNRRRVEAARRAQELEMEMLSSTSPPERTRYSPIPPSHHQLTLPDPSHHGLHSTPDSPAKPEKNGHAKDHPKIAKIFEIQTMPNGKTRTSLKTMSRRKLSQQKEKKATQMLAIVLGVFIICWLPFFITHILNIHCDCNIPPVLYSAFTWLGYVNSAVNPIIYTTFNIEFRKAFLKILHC
MCL1: Induced myeloid leukemia cell differentiation protein Mcl-1 (MCL1, Homo sapiens, UniProt Q07820)
DNA polymerase catalytic subunit: DNA polymerase catalytic subunit (Human cytomegalovirus, UniProt P08546)
Chain of UniProt P08546 (whole entry, looked up): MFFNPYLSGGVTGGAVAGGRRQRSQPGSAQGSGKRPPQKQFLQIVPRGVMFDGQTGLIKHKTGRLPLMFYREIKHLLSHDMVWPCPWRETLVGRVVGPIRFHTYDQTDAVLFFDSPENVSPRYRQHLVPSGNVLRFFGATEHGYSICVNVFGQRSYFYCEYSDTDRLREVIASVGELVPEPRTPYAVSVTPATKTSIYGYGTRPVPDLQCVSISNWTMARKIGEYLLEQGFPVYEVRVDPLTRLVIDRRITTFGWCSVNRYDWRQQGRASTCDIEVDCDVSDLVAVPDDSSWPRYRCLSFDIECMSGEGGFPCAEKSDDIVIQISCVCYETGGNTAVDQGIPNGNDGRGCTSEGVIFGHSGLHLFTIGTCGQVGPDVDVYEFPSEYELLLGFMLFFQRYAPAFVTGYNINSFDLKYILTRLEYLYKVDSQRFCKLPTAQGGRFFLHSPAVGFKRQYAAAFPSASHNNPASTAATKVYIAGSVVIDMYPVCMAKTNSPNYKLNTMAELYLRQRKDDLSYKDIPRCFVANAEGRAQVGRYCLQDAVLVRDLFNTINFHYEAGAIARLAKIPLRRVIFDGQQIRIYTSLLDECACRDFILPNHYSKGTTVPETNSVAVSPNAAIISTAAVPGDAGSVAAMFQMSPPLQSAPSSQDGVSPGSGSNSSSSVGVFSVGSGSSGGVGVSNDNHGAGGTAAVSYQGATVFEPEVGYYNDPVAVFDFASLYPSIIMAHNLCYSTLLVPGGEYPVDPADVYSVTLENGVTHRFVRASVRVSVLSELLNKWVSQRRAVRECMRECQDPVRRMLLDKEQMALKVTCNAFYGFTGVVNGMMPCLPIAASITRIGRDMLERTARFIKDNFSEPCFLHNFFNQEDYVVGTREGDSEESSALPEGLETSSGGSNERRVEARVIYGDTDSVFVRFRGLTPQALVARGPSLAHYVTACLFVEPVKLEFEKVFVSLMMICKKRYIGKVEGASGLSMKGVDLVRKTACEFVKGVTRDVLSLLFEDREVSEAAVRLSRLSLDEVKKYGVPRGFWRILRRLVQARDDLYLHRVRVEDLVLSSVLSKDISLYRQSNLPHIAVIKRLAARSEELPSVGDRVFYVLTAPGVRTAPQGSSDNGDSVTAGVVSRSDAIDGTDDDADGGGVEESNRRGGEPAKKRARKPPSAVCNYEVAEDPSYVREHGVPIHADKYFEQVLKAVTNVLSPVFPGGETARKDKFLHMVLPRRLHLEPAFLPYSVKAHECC
CDK6 with cyclin D1: Cyclin-dependent kinase 6, with cyclin D1 (CDK6, Homo sapiens, UniProt Q00534)
Chain of UniProt Q00534 (whole entry, looked up): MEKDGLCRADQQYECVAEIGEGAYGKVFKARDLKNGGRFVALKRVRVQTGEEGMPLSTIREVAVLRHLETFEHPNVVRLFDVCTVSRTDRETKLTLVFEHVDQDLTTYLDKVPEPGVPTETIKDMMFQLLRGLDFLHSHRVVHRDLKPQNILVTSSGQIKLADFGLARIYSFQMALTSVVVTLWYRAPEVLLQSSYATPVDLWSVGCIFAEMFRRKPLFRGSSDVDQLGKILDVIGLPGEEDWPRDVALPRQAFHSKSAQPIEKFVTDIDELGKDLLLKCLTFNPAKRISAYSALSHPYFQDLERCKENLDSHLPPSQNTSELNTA
Lysine--tRNA ligase, cytoplasmic: Lysine--tRNA ligase, cytoplasmic (Arabidopsis thaliana, UniProt Q9ZPI1)
Chain of UniProt Q9ZPI1 (whole entry, looked up): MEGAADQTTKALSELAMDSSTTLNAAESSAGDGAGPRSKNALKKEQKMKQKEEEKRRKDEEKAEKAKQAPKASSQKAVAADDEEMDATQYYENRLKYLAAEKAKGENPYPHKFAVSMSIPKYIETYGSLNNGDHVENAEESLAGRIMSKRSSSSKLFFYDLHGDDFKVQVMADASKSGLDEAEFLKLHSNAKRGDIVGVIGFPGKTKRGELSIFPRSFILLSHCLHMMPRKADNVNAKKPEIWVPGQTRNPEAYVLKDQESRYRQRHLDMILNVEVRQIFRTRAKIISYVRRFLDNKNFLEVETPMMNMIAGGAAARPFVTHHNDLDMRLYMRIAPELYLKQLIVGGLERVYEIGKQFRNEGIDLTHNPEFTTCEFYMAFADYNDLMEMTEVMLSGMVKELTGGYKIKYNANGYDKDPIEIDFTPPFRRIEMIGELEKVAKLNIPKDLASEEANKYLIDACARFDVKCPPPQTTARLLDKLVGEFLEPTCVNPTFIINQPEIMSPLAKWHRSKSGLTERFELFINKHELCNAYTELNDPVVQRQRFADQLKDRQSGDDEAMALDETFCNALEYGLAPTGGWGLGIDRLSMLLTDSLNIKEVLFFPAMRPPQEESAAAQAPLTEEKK
TAF1L BD2: Transcription initiation factor TFIID subunit 1-like, BD2 (TAF1L, Homo sapiens, UniProt Q8IZX4)
KRAS C118S/G12V with SOS1: GTPase KRas, with SOS1 (KRAS, Homo sapiens, UniProt P01116, C118S/G12V)
PTGS2: Prostaglandin G/H synthase 2 (PTGS2, Homo sapiens, UniProt P35354)
Chain of UniProt P35354 (whole entry, looked up): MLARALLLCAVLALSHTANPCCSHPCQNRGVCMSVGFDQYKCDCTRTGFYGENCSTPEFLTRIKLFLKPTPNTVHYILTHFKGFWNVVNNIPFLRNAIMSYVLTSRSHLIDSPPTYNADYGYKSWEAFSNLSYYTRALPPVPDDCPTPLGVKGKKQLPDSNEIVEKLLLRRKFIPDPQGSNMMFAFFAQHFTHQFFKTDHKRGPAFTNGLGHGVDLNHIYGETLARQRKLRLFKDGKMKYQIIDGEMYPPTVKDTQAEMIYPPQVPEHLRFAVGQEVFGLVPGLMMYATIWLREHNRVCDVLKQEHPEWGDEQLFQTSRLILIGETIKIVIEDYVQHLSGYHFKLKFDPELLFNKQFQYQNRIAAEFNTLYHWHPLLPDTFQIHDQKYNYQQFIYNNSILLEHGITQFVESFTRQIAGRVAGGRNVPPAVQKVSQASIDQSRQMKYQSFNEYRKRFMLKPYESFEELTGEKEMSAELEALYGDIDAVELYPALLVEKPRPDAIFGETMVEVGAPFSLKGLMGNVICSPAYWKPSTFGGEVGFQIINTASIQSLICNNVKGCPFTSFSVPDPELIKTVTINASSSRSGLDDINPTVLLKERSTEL
SIRT5: NAD-dependent protein deacylase sirtuin-5, mitochondrial (SIRT5, Homo sapiens, UniProt Q9NXA8)
Chain of UniProt Q9NXA8 (whole entry, looked up): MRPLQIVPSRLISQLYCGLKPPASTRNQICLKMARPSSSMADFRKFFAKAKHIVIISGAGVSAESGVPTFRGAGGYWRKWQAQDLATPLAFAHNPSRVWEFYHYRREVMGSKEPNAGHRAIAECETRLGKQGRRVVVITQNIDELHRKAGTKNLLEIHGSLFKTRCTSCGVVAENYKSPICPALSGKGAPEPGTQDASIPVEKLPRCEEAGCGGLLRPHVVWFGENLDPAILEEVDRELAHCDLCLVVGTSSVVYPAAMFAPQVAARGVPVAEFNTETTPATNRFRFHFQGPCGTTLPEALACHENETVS
60 kDa heat shock protein, mitochondrial with HSP10: 60 kDa heat shock protein, mitochondrial, with HSP10 (Homo sapiens, UniProt P10809)
NTRK3: NT-3 growth factor receptor (NTRK3, Homo sapiens, UniProt Q16288)
Chain of UniProt Q16288 (whole entry, looked up): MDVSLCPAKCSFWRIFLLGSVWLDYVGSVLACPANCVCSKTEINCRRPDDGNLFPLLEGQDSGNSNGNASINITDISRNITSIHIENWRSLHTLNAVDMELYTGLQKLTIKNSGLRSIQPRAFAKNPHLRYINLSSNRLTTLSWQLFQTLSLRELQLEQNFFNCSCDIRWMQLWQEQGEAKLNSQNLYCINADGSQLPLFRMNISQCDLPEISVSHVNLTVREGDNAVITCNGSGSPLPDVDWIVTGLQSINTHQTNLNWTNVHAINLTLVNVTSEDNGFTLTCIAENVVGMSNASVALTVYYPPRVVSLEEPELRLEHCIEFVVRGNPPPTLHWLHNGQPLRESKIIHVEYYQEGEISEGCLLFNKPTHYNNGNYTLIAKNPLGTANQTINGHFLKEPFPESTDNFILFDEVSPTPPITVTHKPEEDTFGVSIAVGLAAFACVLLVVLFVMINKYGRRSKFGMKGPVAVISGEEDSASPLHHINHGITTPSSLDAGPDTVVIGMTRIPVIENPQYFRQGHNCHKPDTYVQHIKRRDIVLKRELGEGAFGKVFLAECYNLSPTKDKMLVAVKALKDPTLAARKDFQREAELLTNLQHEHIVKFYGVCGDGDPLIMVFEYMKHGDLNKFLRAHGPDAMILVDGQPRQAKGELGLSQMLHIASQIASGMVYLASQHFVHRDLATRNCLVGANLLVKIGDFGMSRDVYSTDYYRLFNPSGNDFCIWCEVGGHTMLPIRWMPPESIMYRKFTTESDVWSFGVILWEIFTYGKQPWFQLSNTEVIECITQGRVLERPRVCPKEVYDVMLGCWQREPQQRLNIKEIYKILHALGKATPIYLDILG
Chain of UniProt O60760 (whole entry, looked up): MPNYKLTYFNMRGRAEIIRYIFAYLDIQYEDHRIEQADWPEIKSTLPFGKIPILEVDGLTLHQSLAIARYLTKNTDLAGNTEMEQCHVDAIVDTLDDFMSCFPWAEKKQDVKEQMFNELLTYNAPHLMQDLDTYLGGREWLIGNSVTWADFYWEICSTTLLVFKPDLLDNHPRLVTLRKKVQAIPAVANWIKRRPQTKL

The IC50 of `CCc1ccc(/C=N/n2c(C)nc3ccc(C)cc3c2=O)s1` is reported as 68400 ± 1350 nM (XDH; enzyme activity, inhibitor).
The IC50 of `Cn1cnc(Cn2ccc3ccc(CNCc4[nH]c5ccccc5c4[C@H]4NC(=O)c5ccc(O)cc54)cc32)c1` is reported as 26500 ± 10700 nM (GTPase KRas, GppNHp; with RAF1 RBD (KRAS, Homo sapiens, UniProt P01116, G12D); HTRF).
For `Fc1ccc(-c2nc(C3CCCCC3)[nH]c2-c2ccncc2)cc1`, the IC50 was 256 ± 22.8 nM (CSNK1E; inhibitor).
With `Cc1cc([C@@H](C)Nc2ccccc2C(=O)O)c2nc(N3CCC(F)(F)CC3)c(C#N)c(=O)n2c1` the IC50 was greater than 10000 nM (Phosphatidylinositol 4,5-bisphosphate 3-kinase catalytic subunit delta isoform, with p85 alpha (PIK3CD, Homo sapiens, UniProt O00329); enzyme activity, inhibitor, ADP-Glo; added: 10 µM ATP).
`O=C(CN1C(=O)Cc2c([nH]c3ccc(Br)cc23)-c2ccc(Cl)cc21)Nc1nncs1` has an IC50 of roughly 30000 nM (Trypanothione synthetase (Trypanosoma cruzi, UniProt Q9GT49); enzyme activity).
`CCCOc1cc2c(cc1C(=C1CC1)c1ccc(C(=O)O)cc1)C(C)(C)CCC2(C)C` has an IC50 of 46 nM (Retinoic acid receptor RXR-alpha (RXRA, Homo sapiens, UniProt P19793); binding; added: [3H]9-cis-retinoic acid).
`Cc1cc(Nc2ccc3c(c2)CCCC3)n2ccnc2n1` gave an IC50 of greater than 100000 nM (Dihydroorotate dehydrogenase (quinone), mitochondrial (DHODH, Homo sapiens, UniProt Q02127); enzyme activity, inhibitor).
For `Cc1ccc(NS(=O)(=O)c2[nH]nc(C)c2C(=O)N2CCC(F)(F)C2)cc1Cl`, the IC50 was greater than 100000 nM (DRD2).
`COc1ccc(C[C@H](N)C(=O)N[C@H]2[C@@H](O)[C@H](n3cnc4c(N(C)C)ncnc43)O[C@@H]2CO)cc1` gave an IC50 of 5400 nM (Puromycin-sensitive aminopeptidase (Rattus norvegicus, UniProt F1M9V7); enzyme activity, inhibitor; rat enzyme).
`Fc1ccc(-c2nc(-c3ccccc3Br)[nH]c2-c2ccncc2)cc1` has an IC50 of 26.9 ± 3.5 nM (CSNK1E; inhibitor).
`COc1ccccc1-c1nccc(COc2ccccc2C[C@@H](Nc2ncnc3oc(-c4ccc(F)cc4)c(-c4ccc(OCCN5CCN(C)CC5)c(Cl)c4C)c23)C(=O)O)n1` gave an IC50 of 0.61 nM (MCL1; binding, quench).
`CC1(F)CN(C(=O)Cn2c(=O)c(C(=O)NCc3ccc(Cl)cc3)cc3nc(N4CCOC4=O)cnc32)C1` has an IC50 of 290 nM (DNA polymerase catalytic subunit; enzyme activity; at least duplicate).
`N#Cc1ccc2nc(Nc3ccc(N4CCOCC4)c(Cl)c3)[nH]c2c1` has an IC50 of greater than 30000 nM (CSNK1E; NanoBRET tracer K8 binding; intact cells).
`COc1ccc(-c2cc(=O)c3ccc(Nc4ncc5cc(C(=O)N(C)C)n(C6CCCC6)c5n4)cc3o2)cc1` has an IC50 of 28 nM (CDK6 with cyclin D1; inhibitor, HotSpot radiometric kinase; added: 10 µM ATP, cyclin D1).
`COc1cc2c(c(OC)c1OC)-c1c(cc3c(c1OC)OCO3)[C@H](OC(=O)c1ccccc1)[C@@](C)(O)[C@@H](C)C2` gave an IC50 of 10 ± 4 nM (Cytochrome P450 3A5 (CYP3A5, Homo sapiens, UniProt P20815); testosterone 6β-hydroxylation, inhibitor, recombinant enzyme; 15 min, pH 7.4, added: testosterone 50 µM).
`CCCCCCCCCOC(C)=O` gave an IC50 of 11700 nM (uncharacterized protein (Spodoptera exigua, UniProt F1CEY0); binding, fluorescence competitive binding; added: 1-NPN 2.0 µM).
`CCc1cc2c(cc1N1CCC(N3CCOCC3)CC1)C(C)(C)c1[nH]c3cc(C#N)ccc3c1C2=O` gave an IC50 of greater than 724 nM (BDNF/NT-3 growth factors receptor (NTRK2, Homo sapiens, UniProt Q16620); enzyme activity, inhibitor; added: 1 mM ATP).
With `Cc1[nH]c(C)c(S(=O)(=O)Nc2ccc(C(F)(F)F)c(Cl)c2)c1C(=O)N1C[C@@H](F)[C@@H](F)C1` the IC50 was greater than 100000 nM (DRD2).
`COc1ccccc1-c1nccc(COc2ccccc2C[C@@H](Nc2ncnc3sc(-c4ccc(F)cc4)c(-c4ccc(OCCN5CCN(C)CC5)c(Cl)c4C)c23)C(=O)O)n1` has an IC50 of 0.303 nM (MCL1; binding, quench).
With `Nc1nsc(C(=O)NCC2CCCCC2)c1C#CC1CC1` the IC50 was 63100 nM (Lysine--tRNA ligase, cytoplasmic; enzyme activity, inhibitor).
With `Cc1ccc(S(=O)(=O)Nc2c(C)[nH]c(C)c2C(=O)N2CCC(F)(F)C2)cc1` the IC50 was greater than 100000 nM (DRD2).
With `Cc1cc2c(cc1N1C(=O)c3cccc4c(N5CCN(C)CC5)ccc(c34)C1=O)n(C)c(=O)n2C` the IC50 was 19.3 nM (TAF1L BD2; HTRF; GST-tagged protein).
The IC50 of `CC#CC(=O)N1CC[C@@H](n2c(=O)n(-c3ccc(Oc4ccccc4)cc3)c3c(N)ncnc32)C1` is reported as greater than 5000 nM (Phosphatidylinositol 4,5-bisphosphate 3-kinase catalytic subunit delta isoform, with p85alpha (PIK3CD, Homo sapiens, UniProt O00329)).
`C[C@H]1CNCCN1c1cccc(-c2noc([C@@]3(C)CCCc4sc(N)c(C#N)c43)n2)n1` has an IC50 of 16 nM (KRAS C118S/G12V with SOS1; KRAS G12V-SOS1 interaction, inhibitor, AlphaScreen; geometric mean).
The IC50 of `CC1(C)OC(c2ccc(S(N)(=O)=O)cc2)=C(c2cccc(F)c2)C1=O` is reported as 277000 nM (PTGS2; inhibitor).
For `Nc1nsc(C(=O)NC[C@@H]2CCCC[C@@H]2Cl)c1Cl`, the IC50 was 2000 nM (Lysine--tRNA ligase, cytoplasmic; enzyme activity, inhibitor).
`Cc1[nH]c(C)c(S(=O)(=O)Nc2ccc(C(F)(F)F)c(Cl)c2)c1C(=O)N1CC[C@@H](F)C1` gave an IC50 of greater than 100000 nM (DRD2).
With `C[C@]1(c2nc(-c3cccc(N4CCNCC4)c3)no2)CCCc2sc(N)c(C#N)c21` the IC50 was no more than 1000 nM (GTPase KRas, with SOS1 (KRAS, Homo sapiens, UniProt P01116); KRAS WT-SOS1 interaction, inhibitor, AlphaScreen).
The IC50 of `Cc1nc2c(F)cc(-c3ccnc(Nc4ccc5c(=O)cc(N6CCOCC6)oc5c4)n3)cc2n1C(C)C` is reported as 13.1 nM (CDK6 with cyclin D1; inhibitor, HotSpot radiometric kinase; added: 10 µM ATP, cyclin D1).
For `O=C(CCC(=O)N[C@@H](CCCCNC(=S)NCCc1cc(O)on1)C(=O)N[C@@H](Cc1c[nH]c2ccccc12)C(=O)NC1CCC1)NCCOCCOCCCCCCCl`, the IC50 was 190 ± 10 nM (SIRT5; enzyme activity, inhibitor).
`NS(=O)(=O)c1ccc(-n2nc(-c3ccc(C(F)(F)F)cc3O)nc2-c2ccccc2O)cc1` has an IC50 of 540 nM (PTGS2; inhibitor).
For `Cc1nn(-c2nc3c(F)cc(F)cc3s2)c(O)c1C(c1ccc(C(F)(F)F)cc1)c1c(C)nn(-c2nc3c(F)cc(F)cc3s2)c1O`, the IC50 was 9930 nM and 11600 nM (Cyclic GMP-AMP synthase (CGAS, Homo sapiens, UniProt Q8N884); enzyme activity, inhibitor, pyrophosphatase-coupled; human cGAS).
`Cc1nc(-c2cnc(NC(C)C)n(C)c2=O)ccc1Oc1ccnc(-c2cnn(C)c2)c1` has an IC50 of greater than 100000 nM (Cytochrome P450 2C19 (CYP2C19, Homo sapiens, UniProt P33261); metabolism-dependent inhibition, inhibitor; 30 min preincubation with NADPH).
With `COc1cc(NCC(=O)Nn2c(C)nc3ccc(Cl)cc3c2=O)cc(OC)c1OC` the IC50 was 28900 ± 2120 nM (XDH; enzyme activity, inhibitor).
`O=C(NC1CCC1)[C@H](Cc1c[nH]c2ccccc12)NC(=O)[C@H](CCCCNC(=S)NCc1n[nH]c(=S)o1)NS(=O)(=O)c1cccc(F)c1` gave an IC50 of 10800 ± 400 nM (SIRT5; enzyme activity, inhibitor).
For `Cc1cc2c(cc1N1C(=O)c3cccc4cc([N+](=O)[O-])cc(c34)C1=O)n(C)c(=O)n2C`, the IC50 was 744 nM (TAF1L BD2; HTRF; GST-tagged protein).
`O=C1NC(=O)C2(N1)c1ccccc1-c1ccccc12` has an IC50 of 8400 nM (GABA-A receptor alpha-1/beta-3 (GABRA1/GABRB3, Homo sapiens, UniProt P14867+P28472); α1β3 receptor).
For `CC1=NOC(CNC(=O)c2cnc3c(c(C)nn3C)c2Cl)C1` (stereo not shown), the IC50 was greater than 100000 nM (60 kDa heat shock protein, mitochondrial with HSP10; HSP60/10-mediated MDH refolding; 5 min, preincubation before ATP, added: denatured malate dehydrogenase).
`Cc1ccccc1-c1nc(-c2ccc(F)cc2)c(-c2ccncc2)[nH]1` has an IC50 of 190 ± 36.9 nM (CSNK1E; inhibitor).
`COc1cc(N2CCC(N3CCN(C)CC3)CC2)ccc1Nc1ncc(Cl)c(Nc2ccccc2P(C)(C)=O)n1` gave an IC50 of greater than 3300 nM (NTRK3; enzyme activity, inhibitor; added: 1 mM ATP).
For `Cc1[nH]c(C)c(S(=O)(=O)Nc2ccc(C(=O)C(F)(F)F)c(Cl)c2)c1C(=O)N1CCC(F)(F)C1`, the IC50 was greater than 100000 nM (DRD2).
`CN1CCN(c2ccc(Nc3ncc4cc(C#N)c(=O)n(C5CCCC5)c4n3)cc2)CC1` has an IC50 of 279 nM (Cyclin-dependent kinase 5, with p35 (CDK5, Homo sapiens, UniProt Q00535)).
`c1ccc(C(OC2CCN(CCCc3nn[nH]n3)CC2)c2ccccc2)cc1` gave an IC50 of 53200 nM (Hematopoietic prostaglandin D synthase (HPGDS, Homo sapiens, UniProt O60760); enzyme activity, inhibitor, fluorescence polarisation; 1 h, room temperature).
With `CN(C)C(=O)c1cc2cnc(Nc3cncc(-c4ccc5c(=O)cc(N6CCOCC6)oc5c4)c3)nc2n1C1CCCC1` the IC50 was 11.8 nM (CDK6 with cyclin D1; inhibitor, HotSpot radiometric kinase; added: 10 µM ATP, cyclin D1).
With `Cc1[nH]cc(S(=O)(=O)Nc2ccc(C(F)(F)F)c(Cl)c2)c1C(=O)N1CCC(F)(F)C1` the IC50 was greater than 100000 nM (DRD2).
`Cn1ncc2c(Cl)c(C(=O)NCc3ccccc3)cnc21` has an IC50 of 17000 nM (60 kDa heat shock protein, mitochondrial with HSP10; HSP60/10-mediated MDH refolding; 30 min, preincubation before ATP, added: denatured malate dehydrogenase).
The IC50 of `CC(=O)OC1CC2CCC1(C)C2(C)C` (stereo not shown) is reported as greater than 30 mg/mL (α-glucosidase; added: 4-nitrophenyl α-D-glucopyranoside).
The IC50 of `Nc1nsc(C(=O)NCc2ccc(F)cc2F)c1Cl` is reported as 1000 nM (Lysine--tRNA ligase, cytoplasmic; enzyme activity, inhibitor).
For `Cc1[nH]c(C)c(S(=O)(=O)Nc2ccc(S(C)(=O)=O)c(Cl)c2)c1C(=O)N1CCC(F)(F)C1`, the IC50 was greater than 100000 nM (DRD2).
The IC50 of `Cc1cnc(-c2ccc(-c3ccc(NC(=O)Nc4c(F)cc(F)cc4F)cc3F)c3c2C(=O)NC3)[nH]1` is reported as 2.7 nM (NTRK3; enzyme activity, inhibitor, mobility shift; added: ATP 1 mM).
For `Cc1cc2c(cc1N1C(=O)c3cccc4c(N5CCC(O)CC5)ccc(c34)C1=O)n(C)c(=O)n2C`, the IC50 was 106 nM (TAF1L BD2; HTRF; GST-tagged protein).
The IC50 of `Cc1ccc2[nH]nc(-c3nnc(Nc4ccc(O)cc4)s3)c2c1` is reported as 4250 ± 1230 nM (α-glucosidase; enzyme activity, inhibitor; pH 6.8, added: p-nitrophenyl-α-D-glucopyranoside).
The IC50 of `CN1CCN(c2cnc3c(cc(C(=O)NCc4ccc(Cl)cc4)c(=O)n3CC(=O)N3CC(C)(F)C3)n2)C1=O` is reported as 320 nM (DNA polymerase catalytic subunit; enzyme activity; retest).
For `C[C@H]1CNCCN1c1nccc(-c2noc([C@@]3(C)CCCc4sc(N)c(C#N)c43)n2)n1`, the IC50 was 41 nM (KRAS C118S/G12V with SOS1; KRAS G12V-SOS1 interaction, inhibitor, AlphaScreen; geometric mean).
The IC50 of `Cc1cnc(NS(=O)(=O)c2c(C)[nH]c(C)c2C(=O)N2CCC(F)(F)C2)cc1Cl` is reported as greater than 100000 nM (DRD2).
